Results collected from several papers.
Numbered parts are unrelated; each lists some results of a single study.

Block 1
Target: Prothrombin, mature alpha-thrombin (F2, Homo sapiens, UniProt P00734)
Method: aptamer microarray, sandwich
Form: DNA with 2'F-ANA
Medium: in vitro
Concentration: 200 nM
Setting: whole 15-mer aptamer, many near background
Together with: Cy3 exosite-II aptamer, 400 nM
Reading: higher = stronger binding
Sequence: GGTTGGTGTGGTTGG
| Modification | mean fluorescence intensity [a.u.] |
| --- | --- |
| 2'F-ANA at 3 4 8 10 13 | 235 |
| 2'F-ANA at 1 2 3 6 9 10 12 13 15 | 81.1 |
| 2'F-ANA at 1 3 4 5 7 10 11 13 14 | 44.8 |
| 2'F-ANA at 6 7 10 13 | 161 |
| 2'F-ANA at 1 10 11 12 13 | 67.1 |
| 2'F-ANA at 1 4 6 7 8 9 12 13 15 | 179 |
| 2'F-ANA at 1 4 6 7 8 12 13 14 | 77.4 |
| 2'F-ANA at 2 5 7 9 10 13 14 15 | 45.9 |
| 2'F-ANA at 1 2 3 4 9 15 | 177 |

Block 2
Target: Interferon regulatory factor 5, full length, phosphomimetic (IRF5, Homo sapiens, UniProt Q13568-2, residues 1-514, K96S/S451D/S453D/S456D/S462D)
Method: protein-binding microarray
Form: double-stranded DNA, one strand shown
Medium: in vitro
Concentration: 250 nM
Setting: 60-bp whole probe
Together with: salmon DNA 0.4 mg/ml
Baseline: random background probes
Reading: higher = stronger binding
Shared flanks, not repeated: GCCTAGCAC … GTCTTGATTCGCTTGACGCTGCTG
| Sequence | log fluorescence [z-score] |
| --- | --- |
| GACGGTATCGACACTGGGGGCGTGCTA | 2.78 |
| TCATCTTCAGCACTCGGACTGTGCTAG | 0.307 |
| GACGCTTTCGGTCTCGGGACGTGCTAG | 10.2 |
| GACGGTCTCCTCATCCTGACGTGCTAG | -0.2 |
| GACGATTTCGGGTTTCGAGCCGTGCTA | 3.99 |
| TTAGGACTGGGGTTTGGGTTAGTGCTA | -0.322 |
| ATCTTCATGAAATTTTAGTAAGTGCTA | 0.91 |
| ATAGGTTTCGGTTTCGGTTAGTGCTAG | 12.1 |
| TTTGATATCAGTTTCGATTAGTGCTAG | 10.3 |
| GACGGTATCGGTTTTCGGGACGTGCTA | 6.8 |
| TTAGATTCCATTTTCGATTAGTGCTAG | 7.61 |

Block 3
Target: RNA binding protein fox-1 homolog 2, RRM domain, GST-SBP tag (RBFOX2, Homo sapiens, UniProt O43251-10, residues 100-194)
Method: RNA Bind-n-Seq
Form: RNA
Medium: in vitro
Concentration: 365 nM
Setting: natural RNA segment, single round, ends assumed
Baseline: no-protein control
Reading: higher = stronger binding
Shared flanks, not repeated: GGGAGUUCUACAGUCCGACGAUC … UGGAAUUCUCGGGUGCCAA
Construct (chain): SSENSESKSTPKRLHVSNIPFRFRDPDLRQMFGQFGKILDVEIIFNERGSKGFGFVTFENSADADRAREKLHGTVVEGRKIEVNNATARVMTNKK
| Sequence | RBNS enrichment (R) |
| --- | --- |
| UUACCCUGUUACUCAGCCACGCCGUGUGUAGGCUUAGCCUCAGGUGGCAGAUGUUUGAGGAAAGGAAUUAUGCCAGGAAGGUGGGACCGGGUUAUGGUCGGGUUUCUAUU | 0.296 |
| CUGCCUUAAGUGAGUCCCGCCCACUCCCUGCCUCCCUCCGAGGUGGGCGGGAGUUCCUACCCCAUCUCUGCUUCCCCUGGAGGCCGGCCAGCGUUUGUGGGUUGGUUCAG | 0.64 |
| ACCACUACAAUGUCUGUCCUUGGGAAGGUAGCAAGACCUGAAGAUUGGAGAUGUCAGGGUCCAUAAGAUGCUUUUUUAGUCUUCAGAAUACCGAGCUACUGGUCCUAAGA | 0.534 |
| CGAGUCUCCUAAGUCCCCGUCAGUGUGGUUUUCACCACAGGACUGUCUCUUGUCGUUUUCCCCUAAUGCCUUCUCCUGCCUUUUCUGUGCCUAGUUUUUGGCUCUUCACA | 0.517 |
| UGAAUCCAGGAGGUGGAGCUUGCAGUGAGCCGAGACCGUGCCACUGCACUCCAGCCUGGGCAACACAGCGAGACUCCGUCUCGAGGAAAAAAAAAGAAAAGAUACGUGCC | 0.261 |
| GAAGCCUCUGGGAACUCCUCCUGUGGCCACCACCAAAGGAUGAGGAAUCUGAGUUGCCAACUUCAGGACGACACCUGGCUUGCCACCCACAGUGCACCACAGGCCAACCU | 0.222 |
| GGCAGGUUCCCACCUCGCAAGCAAUUGGAAACAAAACUUUUGGGGAGUUUUAUUUUGCAUUAGGGUGUGUUUUAUGUUAAGCAAAACAUACUUUAGAAACAAAUGAAAAA | 0.439 |
| AAUUUAGUUCAUCUUUCUUUAAAAGAACAUUAAAUGUAACCAUUUUGUCAGAUCCAUGUAUUUUGGAGCAUAAAAUGUAUGCUGUUGUGACCAAUAAAUAUAAAAUAUGG | 0.613 |
| GCUUGAUAAUUUAUCUUAAAACACAGCAGCAUUGAAAUUUAGGAAAAGAAUAUUAAAUGCCUUUGGAAACAUGAAACAAAGUUAGGAGCCAGUAAGAAAGUGACAGAAGC | 0.643 |
| CCACGUCUGGCUGCUGAUGAACGGUUUAGCCCAGUGACUUCCCUCUGUGUAGCUGAGCAAGGUCUGCUCUCCAGAGGAACACAUCUGCAUUGAACACAUCUGCAAGUACA | 0.544 |
| AAGACAGGCAAGAGGUCUCUAAGGUGUUCCUUUCCUUUGUCUGAGUGUAUAGUAUUAAGAUGCCUAGAAGAGAGAUGGUUUUGUUCCACUCUUACAGGCACUUUAUAUUU | 0.354 |
| GUUUGGGCUUGAAGUUACAUUAAAGUGAAGUUAUUUGAAAGAAAGAAAACCUCAUCAUUUCUAAGGAUGACUUAAUUACUGUGCCUUUUCCUUUCUUUUUACACAUCCUA | 0.402 |

Further values, each from its own experiment
| Molecule | target | test | system | setting | scale | measurement | value |
| --- | --- | --- | --- | --- | --- | --- | --- |
| PhoQ, residues 284 288 289 292 302 303 NLGVHL | PhoP, residues 12 14 15 18 19 NQFFI (Escherichia coli, UniProt P23836) | Sort-seq, refers to: YFP reporter | E. coli | PhoQ-PhoP variant library, together with: 10 µM Mg2+ | baseline: high Mg2+ state, higher = stronger signaling | fold induction | 3.24 |

Some of these lines once more (block 2):
| Sequence | log fluorescence [z-score] |
| --- | --- |
| TTAGATTCCATTTTCGATTAGTGCTAG | 7.61 |
| TTTGATATCAGTTTCGATTAGTGCTAG | 10.3 |
| GACGGTCTCCTCATCCTGACGTGCTAG | -0.2 |
| GACGGTATCGGTTTTCGGGACGTGCTA | 6.8 |
| GACGATTTCGGGTTTCGAGCCGTGCTA | 3.99 |
